# Published values from different studies.
# Protocols differ between the studies behind these lines. ± marks the error that the study gave.
SMILES,tested on,assay,test system,conditions,scale,quantity,result
COC(=O)CCn1c2ccc([N+](=O)[O-])cc2c(=O)n1Cc1ccccc1,,resazurin,"peritoneal macrophages, BALB/c mice","48 h, 10% FBS",,CC50,7.2 ± 5.4 µM
CC(=O)N[C@H](C)c1cc(Cl)ccc1Cn1c(=S)[nH]c(=O)c2[nH]ccc21,,,"dog, both sexes, plasma","oral, 100 mg/kg/day",relative to: dog over human 15 mg,exposure ratio,0.4
Cc1ccccc1-c1cc(N2CC[N+](C)([O-])CC2)ncc1N(C)C(=O)C(C)(C)c1cc(C(F)(F)F)cc(C(F)(F)F)c1,,,"cancer patients, plasma","oral, dose not given, netupitant-palonosetron single dose, range of means",,AUC(0-inf),3060 to 8530 ng·h/mL
O=Cc1c(O)ccc2ccccc12,HUVEC,"RNA sequencing, measured: PDGFB",,"75 µM, 24 h",relative to: DMSO,log2 fold change,-3.32
COC(=O)c1ccc2c(c1)NC(=O)/C2=C(\Nc1ccc2c(c1)CCN2C(=O)CN1CCOCC1)c1ccccc1,,,Caco-2,"20 µM, 2 h",,efflux ratio,~1.1
CC[C@H](C)[C@H](NC(=O)[C@H](Cc1ccccc1)NC(=O)[C@H](CCCN)NC(=O)[C@H](CCCNC(=N)N)NC(=O)[C@H](Cc1ccccc1)NC(=O)[C@H](Cc1ccccc1)NC(=O)[C@H](CCCCN)NC(=O)[C@H](CO)NC(=O)[C@H](CC(C)C)NC(=O)[C@H](CCCNC(=N)N)NC(=O)[C@H](CCSC)NC(=O)[C@H](C)N)C(=O)N[C@@H](CC(C)C)C(=O)N[C@@H](CN)C(=O)N[C@@H](CCCNC(=N)N)C(=O)N[C@@H](CCCCN)C(=O)N[C@@H](CCCCN)C(=O)O,,circular dichroism,20% TFE in PBS,"200 µM, pH 7.4, 25 °C",,helicity,12.8%
CCCOc1ccc(S(N)(=O)=O)cc1-c1nc2c(CCC)nn(C)c2c(=O)[nH]1,,,"healthy male humans, plasma","oral, 200 mg udenafil, udenafil alone",relative to: metabolite AUC(0-t) over udenafil AUC(0-t),metabolic ratio,1.05 ± 0.37
C=C(c1cc(F)c(C(=O)O)c(F)c1)c1cc2c(cc1C)C(C)(C)CCC2(C)C,,,"Sprague-Dawley rat, male","oral, 100 mg/kg, 1 h, sesame oil vehicle",,blood cholesterol,122 ± 17.2 mg/dL
Cc1ccc(O)c2c3c(nn12)CCC(C)(NC(=O)c1ccc(-n2cnc4cc(C(=O)O)ccc42)cc1Cl)C3 (stereo not shown),,,rat,dose not given,,volume of distribution,0.19 L/kg
COc1ccc2occ(/C=C/C(=O)N3CCN(C(=S)SCCCN(C)C)CC3)c(=O)c2c1,tomato spotted wilt virus,"virus inactivation, half-leaf method",Nicotiana glutinosa,tested 31.25 to 500 µg/mL,,EC50,78.5 ± 6.7 µg/mL
C[Si](C)(C)C[C@@H](CN)CC(=O)O,,,"male Sprague-Dawley rat, plasma","oral, 30 mg/kg, 1 h, single dose",,concentration,50.3 µM
CC(C)C[C@H](NC(=O)[C@H](Cc1c[nH]c2ccccc12)NC(=O)[C@@H](N)CO)C(=O)N[C@@H](C)C(=O)N[C@@H](Cc1ccc(O)cc1)C(=O)N1CCC[C@H]1C(=O)NCC(=O)N[C@@H](C)C(=O)N[C@H](C(=O)N[C@@H](CO)C(=O)N[C@@H](Cc1ccc(O)cc1)C(=O)N[C@@H](CCCNC(=N)N)C(=O)NCCCCCC(=O)N[C@@H](CCCCNC(=O)[C@H](CCCNC(=N)N)NC(=O)[C@H](Cc1ccc(O)cc1)NC(=O)[C@H](CO)NC(=O)[C@@H](NC(=O)[C@H](C)NC(=O)CNC(=O)[C@@H]1CCCN1C(=O)[C@H](Cc1ccc(O)cc1)NC(=O)[C@H](C)NC(=O)[C@H](CC(C)C)NC(=O)[C@H](Cc1c[nH]c2ccccc12)NC(=O)[C@@H](N)CO)C(C)C)C(=O)O)C(C)C,,,mouse serum,,relative to: SWL monomer,fold shortening of half-life,~8 fold
CC(C)(Sc1ccncc1-c1ccc(C#N)c2ccccc12)C(=O)OC1OC(C(=O)O)C(O)C(O)C1O (stereo not shown),,,"adult men, plasma","oral, 15 mg verinurad, severe renal impairment",relative to: normal renal function,Cmax increase,253%
Cn1c(=O)oc2ccc(-c3ccc(CC(C#N)NC(=O)C4CNCCCO4)c(F)c3)cc21 (stereo not shown),,measured: acne,human volunteers,"oral, dose not given",,treatment-emergent adverse event incidence,3.7%
CNC(=S)N/N=C/c1ccccn1,,cyclic voltammetry,DMF,Cu2+ complex,,peak current ratio ipa/ipc,0.18
Oc1ccc2ccccc2c1/N=N/c1ccccc1,,,extracted rat blood QC samples,"0.2 µg/L, 8 h, room temperature, short-term stability",,measured concentration,0.203 µg/L
COc1ccc(/C=C/C2=[N+]3C(=C(CO)c4c(C)cc(/C=C/c5ccc(OC)cc5)n4[B-]3(F)F)C(C)=C2)cc1,,,DMSO/methanol 1:1,"1 h, with: 645 nm light, 9.00 J/cm2",,photostability,unstable
CCCC(CCC)NC(=O)c1ccc(OC)c(O)c1,,,rat liver microsomes,"1.0 µM, 5 min, pH 7.4",,remaining parent compound,87%
CCCC[C@H](NC(C)=O)C(=O)N[C@H]1CC(=O)NCCCC[C@@H](C(=O)N[C@@H](C(=O)N2CCC[C@@H]2C(N)=O)C(C)C)NC(=O)[C@H](Cc2c[nH]c3ccccc23)NC(=O)[C@H](CCCN=C(N)N)NC(=O)[C@@H](Cc2ccc3ccccc3c2)NC(=O)[C@@H]2CCCN2C1=O,,,"healthy dogs, plasma","2.25 mg/kg per day, day 5, median",,plasma phosphorus,4.7 mg/dL
CSCOC1C(=O)C2(C)C(OCSC)CC3OCC3(OC(C)=O)C2C(OC(=O)c2ccccc2)C2(O)CC(OC(=O)C(O)C(C=C(C)C)NC(=O)OC(C)(C)C)C(C)=C1C2(C)C (stereo not shown),,,"female Sprague-Dawley rat, plasma","intravenous, 4 mg/kg",,MRT(0-t),4.9 h
COc1cc(F)c(C(C)C)cc1C1=C(CN2C(=O)O[C@H](c3cc(C(F)(F)F)cc(C(F)(F)F)c3)[C@@H]2C)CC(C)(C)CC1,,non-compartmental analysis,"healthy male subjects, plasma","oral, 200 mg single dose",,Vd/F per body weight,82.6 L/kg
CCC(=O)N[C@@H](C)C(=O)OCC(=O)N[C@@H](C)C(=O)O,,,water,"pH 4, 37 °C",,depolymerization half-life,826 h
CC1=CC(C)=[N+]2C1=Cc1ccc(CCC(=O)N3CCN(C(=O)c4cc(Cc5n[nH]c(=O)c6ccccc56)ccc4F)CC3)n1[B-]2(F)F,,,"athymic nude NU/J mouse, whole blood","intravenous, 2.5 mg/kg",,beta half-life,1.47 h
COc1ccc2cc(-c3ccc(-c4ccc(C)cn4)nc3)oc2c1,,TCSPC,EtOH,,,radiative decay rate constant,0.41 ns⁻¹
N=C(N)NCCC[C@@H]1NC(=O)[C@H](Cc2c[nH]c3ccccc23)NC(=O)[C@@H](CC2CCCCC2)NC(=O)[C@@H]2CCCN2C(=O)[C@@H](NC(=O)CCc2ccccc2)CCCNC1=O,,,"C57BL/6J mouse, plasma spinal cord","intraperitoneal, 1 mg/kg single dose",,MRT(0-last),0.65 h
COC(=O)C(c1ccccc1Cl)N1CCC(SCC(=O)c2cccc(OC)c2)C(=CC(=O)O)C1 (mixture of isomers),,HPLC-MS/MS,feline EDTA plasma,"100 ng/mL, 24 h, -80 °C, storage stability",,deviation from nominal,0%
CC(C)[C@H](NC(=O)CNC(=O)[C@H](CCC(N)=O)NC(=O)[C@H](C)N)C(=O)O,,LC-MS/MS,"human, plasma","intravenous, 10 mg/kg three times daily, day 3, first dose, 10 min infusion, geometric mean",,AUC(0-last),273 ng·h/mL
CC[C@H](C)[C@H](NC(=O)[C@H](Cc1ccccc1)NC(=O)[C@H](CC(=O)O)NC(=O)[C@H](CCCNC(=N)N)NC(=O)[C@H](Cc1ccccc1)NC(=O)[C@H](Cc1ccccc1)NC(=O)[C@H](CCCN)NC(=O)[C@H](CO)NC(=O)[C@H](CC(C)C)NC(=O)[C@H](CCCNC(=N)N)NC(=O)[C@H](CCSC)NC(=O)[C@H](C)N)C(=O)N[C@@H](CCCCN)C(=O)N[C@@H](CCC(N)=O)C(=O)N[C@@H](CCCNC(=N)N)C(=O)N[C@@H](CCCCN)C(=O)N[C@@H](CCCCN)C(=O)O,,circular dichroism,20% TFE in PBS,"200 µM, pH 7.4, 25 °C",,helicity,17.4%
CCCCSC(=S)N1CCN(C(=O)/C=C/c2coc3ccccc3c2=O)CC1,tomato spotted wilt virus,"viral infection, half-leaf method",Nicotiana glutinosa,500 µg/mL,,curative effect,46.8 ± 7.2%
[11CH3]c1ccc2nc(C3CCC3)n(-c3ccc4[nH]ncc4c3)c2n1,,,"standard human adult, thymus",,,absorbed radiation dose,2.6 µSv/MBq
CC(C)[C@H](NC(=O)[C@@H]1CCCN1C(=O)[C@H](CCCNC(=N)N)NC(=O)[C@H](CS)NC(=O)[C@H](Cc1c[nH]c2ccccc12)NC(=O)[C@H](CCCNC(=N)N)NC(=O)[C@@H](Cc1ccccc1)NC(=O)[C@H](Cc1c[nH]cn1)NC(=O)[C@H](CCC(=O)O)NC(=O)[C@H](CS)NC(=O)[C@H](CS)NC(=O)[C@@H]1CC(=O)N[C@@H](CCCNC(=N)N)C(=O)NCC(=O)N[C@@H](CC(=O)O)C(=O)N[C@H](Cc2ccc(O)cc2)C(=O)N1)C(N)=O [technetium-99m labelled],,,"C57 mouse, female, B16/F1 melanoma","intravenous, 0.037 MBq, 0.5 h",relative to: tumour over muscle,tumour to tissue ratio,9.65

# For quick reference, copied from above:
SMILES,tested on,assay,test system,conditions,scale,quantity,result
[11CH3]c1ccc2nc(C3CCC3)n(-c3ccc4[nH]ncc4c3)c2n1,,,"standard human adult, thymus",,,absorbed radiation dose,2.6 µSv/MBq
CC(C)[C@H](NC(=O)[C@@H]1CCCN1C(=O)[C@H](CCCNC(=N)N)NC(=O)[C@H](CS)NC(=O)[C@H](Cc1c[nH]c2ccccc12)NC(=O)[C@H](CCCNC(=N)N)NC(=O)[C@@H](Cc1ccccc1)NC(=O)[C@H](Cc1c[nH]cn1)NC(=O)[C@H](CCC(=O)O)NC(=O)[C@H](CS)NC(=O)[C@H](CS)NC(=O)[C@@H]1CC(=O)N[C@@H](CCCNC(=N)N)C(=O)NCC(=O)N[C@@H](CC(=O)O)C(=O)N[C@H](Cc2ccc(O)cc2)C(=O)N1)C(N)=O [technetium-99m labelled],,,"C57 mouse, female, B16/F1 melanoma","intravenous, 0.037 MBq, 0.5 h",relative to: tumour over muscle,tumour to tissue ratio,9.65
